Experimental data collected from several papers.
Compare with care: the assays were run in different laboratories. ± gives the spread as reported. Values after ≈ are worked out from the molar mass of the structure shown.
Cell line: Vero

NCc1ccc(NC(=O)c2cc(-c3ccccc3)n(-c3ccccc3)n2)cc1
viability (cell growth or viability; 12.5 µM): > 95%

Cc1[nH]c(=S)[nH]c(=O)c1/N=N/c1nnc(S)[nH]1
CC50 (cell growth or viability, MTT; 72 h): ≥ 10 µg/mL

Oc1cccc2c1[nH]c1c(C3=CC4(O)CCC=CCCCCN5CCC3C3(CC6C=CCCCCN6C43)C5)nccc12 (single isomer, unassigned; (+))
IC50 (cytotoxicity): 775 ± 175 ng/mL (≈ 1.37 µM)

Cc1[nH]c(=S)[nH]c(=O)c1/N=N/c1nnc(S)s1
CC50 (cell growth or viability, MTT; 72 h): ≥ 10 µg/mL

NC(=O)c1cccc(NC(=O)c2cc(-c3ccc(Br)cc3)n(-c3ccccc3)n2)c1
viability (cell growth or viability; 12.5 µM): 87%

CC1(F)CN(C(=O)Cn2c(=O)c(C(=O)NCc3ccc(Cl)cc3)cc3nc(N4CCN(CCN)C4=O)cnc32)C1
CC50 (cell growth or viability, CCK-8; 5 days): > 40 µM

O=C(Oc1cc(OC(=O)c2cc(O)c(O)c(O)c2)c2ccccc2c1)c1cc(O)c(O)c(O)c1
CC50 (cell growth or viability, MTT; 48 h): 88.9 µM

Cc1ccccc1-n1nc(C(=O)Nc2cccc(C(N)=O)c2)cc1-c1cccnc1
viability (cell growth or viability; 12.5 µM): > 95%

CN(C)c1ncnc2c1ncn2[C@@H]1O[C@H](CCl)[C@@H](NC(=O)[C@H](CSC23CC4CC(CC(C4)C2)C3)NC(=O)OC(C)(C)C)[C@H]1O
CC50 (cell growth or viability, MTT): 27.1 µM

For quick reference, copied from above:
CC1(F)CN(C(=O)Cn2c(=O)c(C(=O)NCc3ccc(Cl)cc3)cc3nc(N4CCN(CCN)C4=O)cnc32)C1
CC50 (cell growth or viability, CCK-8; 5 days): > 40 µM
